# Experimental data collected from several papers.
# Numbers after ± are the reported error.
SMILES,assay,test system,conditions,scale,measurement,value
O[C@H]1CCCN[C@@H]1CCCn1cnc2c(Cl)c(Cl)ccc21,,"healthy CYP2D6 EM and UM, plasma","oral, 150 mg single dose",,median Cmax,255 ng/mL
COc1ncccc1-c1cnn2ccc(N3CCN(C(=O)OC(C)C)CC3)nc12,,"rat, CCI mechanical allodynia model, brain","oral, 10 mg/kg, 240 min",,drug concentration,3.8 µM
C[C@@H]1NC(=O)[C@H](CCCCNC(=O)CO/N=C/C(=O)NCCCC[C@@H]2NC(=O)[C@@H](Cc3ccccc3)NC(=O)[C@H](CC(=O)O)NC(=O)CNC(=O)[C@H](CCCNC(=N)N)NC2=O)NC(=O)CNC(=O)[C@@H]2CCCN2C(=O)[C@H](CCCCNC(=O)CO/N=C/C(=O)NCCCC[C@@H]2NC(=O)[C@@H](Cc3ccccc3)NC(=O)[C@H](CC(=O)O)NC(=O)CNC(=O)[C@H](CCCNC(=N)N)NC2=O)NC(=O)[C@H](CCCCNC(=O)CN2CCCNCCNCCCNCC2)NC(=O)[C@H](CCCCNC(=O)CO/N=C/C(=O)NCCCC[C@@H]2NC(=O)[C@@H](Cc3ccccc3)NC(=O)[C@H](CC(=O)O)NC(=O)CNC(=O)[C@H](CCCNC(=N)N)NC2=O)NC(=O)CNC(=O)[C@@H]2CCCN2C(=O)[C@H](CCCCNC(=O)CO/N=C/C(=O)NCCCC[C@@H]2NC(=O)[C@@H](Cc3ccccc3)NC(=O)[C@H](CC(=O)O)NC(=O)CNC(=O)[C@H](CCCNC(=N)N)NC2=O)NC1=O [copper-64 labelled],,"normal mice, pancreas","intravenous, 0.74 MBq, 3 h post-injection",,tissue uptake,0.51 ± 0.05 %ID/g
CC(C)[C@@H]1NC(=O)[C@@H]2CSSC[C@@H]3NC(=O)[C@H]([C@@H](C)O)NC(=O)[C@@H]4CSSC[C@H](NC(=O)[C@H](C(C)C)NC(=O)[C@@H]5CCCN5C(=O)[C@H](CCCCN)NC(=O)CNC(=O)[C@H](CC(N)=O)NC(=O)[C@H](CCCNC(=N)N)NC(=O)[C@H]([C@@H](C)O)NC(=O)[C@H](CSSC[C@H](NC(=O)[C@H]([C@@H](C)O)NC(=O)CNC(=O)CNC1=O)C(=O)N[C@@H](CC(N)=O)C(=O)N[C@@H]([C@@H](C)O)C(=O)N1CCC[C@H]1C(=O)NCC(=O)N4)NC(=O)[C@H](C(C)C)NC(=O)[C@@H]1CCCN1C(=O)[C@H](Cc1c[nH]c4ccccc14)NC(=O)[C@H](CO)NC3=O)C(=O)NCC(=O)N[C@@H](CCC(=O)O)C(=O)N[C@@H]([C@@H](C)O)C(=O)N2,HPLC,ammonium bicarbonate,"180 µM, 14 days, pH 9.0, 25 °C, deamidation stability",,remaining peptide,86.1 ± 1%
CC(C)Nc1ccnc(Nc2cccc(-c3cccnc3)c2)n1,measured: total bilirubin,"mouse, blood","intraperitoneal, 10 mg/kg",,blood chemistry,0.21 mg/dL
O=C(Nc1ccccc1)C1CCN(C(=O)Oc2cccnc2)CC1,psychotropic effects VAS,healthy women,60 mg,"relative to: pre-dose baseline, direction not given",change in Sounds score,12
COc1cc2c(Oc3ccc4[nH]c(C)cc4c3F)ccnc2cc1OCC1(N)CC1,,paediatric recurrent refractory sarcoma,"concentration not given, whole group",,grade 1 or 2 Fever,14.7%
O=[N+]([O-])c1ccc2c(c1)S(=O)(=O)C=C2,,"male C57BL/6 mice, blood","intraperitoneal, 10 mg/kg, day 8, group average",,red cell distribution width SD,32 fL
Clc1cc(Cl)c(-c2c(Cl)c(Cl)cc(Cl)c2Cl)cc1Cl,,fresh water,20 °C,,log K(PDMS-water),6.76 ± 0.09
O=C(O)CCCOc1ccc(F)cc1-c1cc(-c2ccccc2C(F)(F)F)n(-c2ccccc2)n1,measured: Fbg,"Crl:CD(SD) rats, female, blood","iv, 25 µg/kg, 14 days",,blood chemistry,197 mg/dL
NCCCC[C@@H]1NC(=O)[C@@H](Cc2c[nH]c3ccccc23)NC(=O)[C@H](c2ccccc2)NC(=O)[C@@H]2C[C@@H](OC(=O)NCCN)CN2C(=O)[C@H](Cc2ccccc2)NC(=O)[C@H](Cc2ccc(OCc3ccccc3)cc2)NC1=O,,healthy volunteers,"subcutaneous, 600 µg twice daily, day 5, 0.00 h",,QTcI change from baseline,0.9 ms
CC1(C)[C@H](C=C(Cl)Cl)[C@H]1C(=O)OCc1cccc(Oc2ccccc2)c1,measured: CYP2B6,"human, age 1 year, recombinant human CYP2B6",0.1 µM,,enzyme contribution to clearance,0.05%
CC/C(=C(\c1ccccc1)c1ccc(OCCN(C)C)cc1)c1ccccc1,,"CD-1 mouse, male, lung","intraperitoneal, 0.3 mg/kg",,elimination rate constant,4.15e-05 s⁻¹
O=S(=O)(Nc1ccccc1)c1ccc(NC(=S)Nc2ccccc2)cc1,,"mouse, male, spleen","oral, 5 mg/kg daily, 14 days",relative to: body weight,relative organ weight,0.34%
Clc1nc[n]([Au][PH](c2ccccc2)(c2ccccc2)c2ccccc2)c1Cl,,"NCG mouse, plasma","intraperitoneal, 10 mg/kg",,Vz/F,538 mL/kg
Clc1ccc(Cl)c(-c2cc(Cl)c(Cl)c(Cl)c2Cl)c1,,polyethylene-water partitioning,PCB compilation,relative to: maximum over minimum K,literature range factor,2
CC[C@H](C)[C@H](NC(=O)[C@H](C)NC(=O)[C@H](CCCCN)NC(=O)[C@H](CC(C)C)NC(=O)[C@H](C)NC(=O)[C@@H](NC(=O)[C@H](Cc1c[nH]cn1)NC(=O)[C@H](CC(C)C)NC(=O)[C@@H](NC(=O)[C@@H](NC(=O)[C@H](CCCCN)NC(=O)[C@H](C)NC(=O)[C@H](C)NC(=O)[C@H](CO)NC(=O)[C@H](CCCCN)NC(=O)[C@H](Cc1ccccc1)NC(=O)[C@@H](NC(=O)[C@H](CCCCN)NC(=O)[C@H](CC(C)C)NC(=O)[C@H](Cc1ccccc1)NC(=O)[C@H](CO)NC(=O)[C@H](CCCCN)NC(=O)[C@H](Cc1c[nH]c2ccccc12)NC(=O)[C@H](CCCCN)NC(C)=O)[C@@H](C)O)[C@@H](C)O)C(C)C)[C@@H](C)O)C(=O)N[C@@H](CO)C(=O)N[C@@H](CO)C(N)=O,,BALB/c mouse,"topical on skin, dose not given",,fraction of applied dose absorbed systemically,~3.4%
CCN1CCN(Cc2ccc(Nc3ncc(F)c(-c4cc(F)c5nc6n(c5c4)[C@H](C)CCC6)n3)nc2)CC1,,patients with advanced solid tumours,"dose not given, phase Ia monotherapy",,decreased appetite any grade,20.8%
CCOc1cc(Oc2ccc(C(F)(F)F)cc2Cl)ccc1[N+](=O)[O-],,"rat, male","125 mg/kg, 4 days",,body weight gain,31.2%
CC(C)(O)c1cc(Nc2cc(Oc3cn(C4CC4)nc3C3CCOCC3)ccn2)ccn1,Pyrexia,"patients with advanced cancer, grade 4 glioma expansion","oral, 50 mg twice daily, grade ≥3, 2 weeks on/2 weeks off schedule",,treatment-related adverse events,0%
COc1ccc2nc3cc(Cl)ccc3c(Nc3cc(CN4CCCC4)c(O)c(CN4CCCC4)c3)c2n1,,"mouse, blood","intraperitoneal, 57 mg/kg",,monocytes,3.08%
CC(=O)c1c(C)c2cnc(Nc3ccc(C4CCN(CCS(C)(=O)=O)CC4)cn3)nc2n(C2CCCC2)c1=O,,"human, plasma","oral, 50 mg, day 1 single dose",,elimination rate constant,1.67e-05 s⁻¹
CC(C)(c1ccccc1)c1cc(-n2nc3ccccc3n2)c(O)c(C(C)(C)c2ccccc2)c1,,human aged 11-16 years,"concentration not given, spray sunscreen, 95th percentile",,daily dermal exposure dose,53.9 ng/kg/day
COc1ccnc(C(=O)N[C@H]2COC(=O)[C@H](Cc3ccccc3)[C@@H](OC(=O)C(C)C)[C@H](C)OC2=O)c1OCOC(=O)C(C)C,,mouse,"oral, 90 days",,LOAEL,192 mg/kg bw/day
CN1CCN(c2ccc(Nc3nccc(-c4cccc([N+](=O)[O-])c4)n3)cc2C(F)(F)F)CC1,,zebrafish embryos,"50 µM, 5 d",,toxicity,0%
Cn1cc(-c2nc(N[C@@H]3CCCC[C@@H]3N)c(F)c3c2C(=O)NC3)cn1,measured: Gastrointestinal haemorrhage,patients with relapsed or refractory AML,"oral, 140 mg once daily",,hemorrhagic adverse events,20%
CN[C@H]1CC[C@@H](c2ccc(Cl)c(Cl)c2)c2ccccc21,,"CD-1 mouse, male, lung","intraperitoneal, 3 mg/kg",,elimination rate constant,4.5e-05 s⁻¹
CC[C@H](C)[C@@H]1NC(=O)[C@@H]2CSSC[C@H](NC(=O)[C@H](CCCNC(=N)N)NC(=O)[C@@H]3CSSC[C@H](NC1=O)C(=O)N[C@@H]([C@@H](C)O)C(=O)N[C@@H](CCCNC(=N)N)C(=O)NCC(=O)N[C@@H](Cc1ccccc1)C(=O)N3)C(=O)N[C@@H](CC(C)C)C(=O)N[C@H]1CSSC[C@H](NC(=O)[C@H](C(C)C)NC(=O)CNC(=O)[C@H](CCCNC(=N)N)NC(=O)[C@H](CCCNC(=N)N)NC1=O)C(=O)N[C@@H](CCCNC(=N)N)C(=O)N2,,"Sprague-Dawley rat, female, lung","5 mg/kg, perivascular, peribronchiolar",direction not given,lung eosinophilic infiltration score,1 to 3
O=S(=O)([O-])C(F)(F)C(F)(F)C(F)(F)C(F)(F)C(F)(F)C(F)(F)C(F)(F)C(F)(F)F.[K+],,"male C57BL/6J mice, EtOH-fed, plasma",dose not given,relative to: efavirenz and pair-fed,VLDL level,increased
Cn1ncc(-c2nc(N[C@H]3CC[C@H](N)CC3)ncc2Cl)c1CC1CC1,measured: dyspnea any grade,human patients phase I,dose not given,,adverse event incidence,37%
CC(C)C[C@@H]1NC(=O)CNC(=O)[C@H](CC(N)=O)NC(=O)[C@H](CCCNC(=N)N)NC(=O)[C@H]([C@@H](C)O)NC(=O)[C@@H]2CSSC[C@@H]3NC(=O)[C@H]([C@@H](C)O)NC(=O)CNC(=O)CNC(=O)[C@H](CCCCN)NC(=O)[C@@H]4CSSC[C@H](NC(=O)[C@H]([C@@H](C)O)NC(=O)[C@H](CSSC[C@H](NC(=O)[C@H](C(C)C)NC(=O)[C@@H]5CCCN5C1=O)C(=O)NCC(=O)N[C@@H](CCC(=O)O)C(=O)N[C@@H]([C@@H](C)O)C(=O)N4)NC(=O)CNC(=O)[C@@H]1CCCN1C(=O)[C@H]([C@@H](C)O)NC(=O)[C@H](CC(N)=O)NC3=O)C(=O)N[C@@H](CO)C(=O)N[C@@H](Cc1c[nH]c3ccccc13)C(=O)N1CCC[C@H]1C(=O)N[C@@H](C(C)C)C(=O)N2,HPLC,water,"180 µM, 14 days, 37 °C, deamidation stability",,remaining peptide,99.4 ± 0.6%
C[C@@H](NC(=O)N1C(=O)[C@H](Cc2ccnc(N)c2)[C@H]1C(=O)O)C1CCCCC1,,healthy adult Chinese volunteers,"continuous intravenous infusion, 1.0 mg/kg/h, 5-day infusion, CTCAE 5.0 grading",,incidence of elevated neutrophil,0%
Clc1cc(Cl)c(-c2cc(Cl)c(Cl)cc2Cl)cc1Cl,,fresh water,20 °C,,log K(PDMS-water),6.42 ± 0.06
COc1c(OCCCN2CCOCC2)ccc2c1N=C(NC(=O)c1cnc(N)nc1)N1CCN=C21,,"human, diabetic patients, baseline HbA1c above 6.5%","dose not given, after treatment",,HbA1c,7.3 ± 1.1%
C[C@]1(CO)Cc2ncn(-c3ccc(C#N)c(Cl)c3)c2C(=O)O1,,Japanese subjects,3 mg single dose,,any adverse event incidence,0%
CO[C@H]1C[C@@H]2CC[C@@H](C)[C@@](O)(O2)C(=O)C(=O)N2CCCC[C@H]2C(=O)O[C@H]([C@H](C)C[C@@H]2CC[C@@H](OC(=O)NCCOCCOCCOCCOCCOCCOCCOCCOCCC(=O)N3CCc4cc(Cn5nc(-c6ccc7oc(N)nc7c6)c6c(N)ncnc65)ccc4C3)[C@H](OC)C2)C[C@@H](O)[C@H](C)/C=C(\C)[C@@H](O)[C@@H](OC)C(=O)[C@H](C)C[C@H](C)/C=C/C=C/C=C/1C,"phase 1 dose escalation, measured: diarrhoea",advanced solid tumour patients,"intravenous, 6 mg weekly, any grade",,TRAE incidence,0%
c1cc2ccc3cccc4ccc(c1)c2c34,,fresh water,"12 (unit not given), 20 °C, SSP sampler, 100 µm",,log K(PDMS-water),4.27 ± 0.01
Clc1ccc(Cl)c(-c2cc(Cl)ccc2Cl)c1,,"Sprague Dawley rat, thymus","intraperitoneal, 100 mg/kg",,relative organ weight,0.0026 g/g body weight
